# Assay results from different studies.
# Lines come from different studies, so protocols differ.
# Organism: Staphylococcus aureus
SMILES,assay,test system,conditions,MIC
CCCCCC[N+](C)(C)CCCCCCOc1cc(OCCCCCC[N+](C)(C)CCCCCC)cc(OCCCCCC[N+](C)(C)CCCCCC)c1.[Br-].[Br-].[Br-],,CA-MRSA USA300-0114,,0.5 µM
CN[C@H](CC(C)C)C(=O)N[C@H]1C(=O)N[C@@H](CC(N)=O)C(=O)N[C@H]2C(=O)N[C@H]3C(=O)N[C@H](C(=O)N[C@H](C(=O)O)c4cc(O)cc(O)c4-c4cc3ccc4O)[C@H](O)c3ccc(c(Cl)c3)Oc3cc2cc(c3O[C@@H]2O[C@H](CO)[C@@H](O)[C@H](O)[C@H]2O[C@H]2C[C@](C)(NCc3ccc(OCc4cn(CC(=O)N[C@H](C(=O)N[C@@H](CCN)C(=O)N[C@H]5CCNC(=O)[C@H]([C@@H](C)O)NC(=O)[C@H](CCN)NC(=O)[C@H](CCN)NC(=O)[C@H](CC(C)C)NC(=O)[C@@H](CC(C)C)NC(=O)[C@H](CCN)NC5=O)[C@@H](C)O)nn4)c(OC)c3)[C@H](O)[C@H](C)O2)Oc2ccc(cc2Cl)[C@H]1O,broth microdilution,"MSSA ATCC 29213, cation-adjusted Mueller-Hinton broth","20 to 24 h, 37 °C, 0.002% polysorbate 80",0.25 µg/mL
CC[C@H]1OC(=O)[C@H](C)[C@@H](OC(=O)Cc2ccc(C(F)(F)F)cc2)[C@H](C)[C@@H](O[C@@H]2O[C@H](C)C[C@H](N(C)C)[C@H]2O)[C@](C)(OC)C[C@@H](C)C(=O)[C@H](C)[C@@H](O)[C@]1(C)O,,DSM 20231 MSSA,,4 µg/mL
CC[C@@H](C)[C@@H](NC(=O)[C@H](CCCNC(=N)N)NC(=O)[C@H](CCC(N)=O)NC(=O)[C@@H](NC(=O)[C@H](NC(=O)[C@H](CCCNC(=N)N)NC(=O)[C@H](CCCCN)NC(=O)[C@H](Cc1ccccc1)NC(=O)CN)[C@H](C)CC)C(C)C)C(=O)N[C@@H](CCCCN)C(=O)N[C@@H](CC(=O)O)C(=O)N[C@@H](Cc1ccccc1)C(=O)N[C@H](CC(C)C)C(=O)N[C@@H](CCCNC(=N)N)C(=O)N[C@@H](CC(N)=O)C(=O)N[C@@H](CC(C)C)C(=O)N[C@H](C(N)=O)C(C)C,,USA300 LAC,,> 160 µM
CC[C@H]1OC(=O)[C@H](C)[C@@H](OC(=O)Cc2cccc(Cl)c2)[C@H](C)[C@@H](O[C@@H]2O[C@H](C)C[C@H](N(C)C)[C@H]2O)[C@](C)(OC)C[C@@H](C)C(=O)[C@H](C)[C@@H](O)[C@]1(C)O,,DSM 20231 MSSA,,4 µg/mL
CCOc1c(NC(=O)c2ccc(NC(=O)c3ccc(NC(=O)[C@H](Cc4c[nH]nn4)NC(=O)c4ccc(NC(=O)/C(C)=C/c5ccc(O)cc5)cc4)cc3)c(OC)c2O)ccc(C(=O)O)c1O,broth microdilution,ciprofloxacin-sensitive,,0.125 µg/mL
CCCCCC[N+](C)(C)CCCCCCCCCCOc1cc(OCCCCCCCCCC[N+](C)(C)CCCCCC)cc(OCCCCCCCCCC[N+](C)(C)CCCCCC)c1.[Br-].[Br-].[Br-],,HA-MRSA ATCC 33591,,2 µM
CC[C@H]1OC(=O)[C@H](C)[C@@H](OC(=O)Cc2ccc(N(C)C)cc2)[C@H](C)[C@@H](O[C@@H]2O[C@H](C)C[C@H](N(C)C)[C@H]2O)[C@](C)(OC)C[C@@H](C)C(=O)[C@H](C)[C@@H](O)[C@]1(C)O,microbial growth,BAA976,,64 µg/mL
COc1c(C)c(OS(=O)(=O)c2ccccc2)c(C)c(O)c1C(=O)/C=C/c1ccccc1,"microbial growth, broth dilution",ATCC25923,,5000 µg/mL
CC[C@H]1OC(=O)[C@H](C)[C@@H](OC(=O)Cc2ccccc2[N+](=O)[O-])[C@H](C)[C@@H](O[C@@H]2O[C@H](C)C[C@H](N(C)C)[C@H]2O)[C@](C)(OC)C[C@@H](C)C(=O)[C@H](C)[C@@H](O)[C@]1(C)O,,BAA-977,,1 µg/mL
CCC(CC)c1cc(CCN2CCCN(S(=O)(=O)c3cccc4cccnc34)CC2)nc(-c2ccccn2)n1,"microbial growth, broth dilution",ATCC29213,,> 16 µg/mL
Oc1c(Br)cc(Br)c2nc3cc(Cl)ccc3nc12,,147 MRSA clinical isolate,,0.1 µM
CC[C@H]1OC(=O)[C@H](C)[C@@H](OC(=O)c2ccc(N)cc2)[C@H](C)[C@@H](O[C@@H]2O[C@H](C)C[C@H](N(C)C)[C@H]2O)[C@](C)(OC)C[C@@H](C)C(=O)[C@H](C)[C@@H](O)[C@]1(C)O,microbial growth,BAA976,,> 256 µg/mL
CCCC/C=C/C(=O)N[C@@H](Cc1cc(F)cc(F)c1)C(=O)N[C@@H]1C(=O)N2CCC[C@H]2C(=O)N2CCCC[C@H]2C(=O)N[C@@H](C)C(=O)N2CCC[C@H]2C(=O)O[C@H]1C,"microbial growth, broth dilution",,,0.098 µg/mL
CCCCCCCCn1cc[n+](CCCCCCOc2cc(OCCCCCC[n+]3ccn(CCCCCCCC)c3)cc(OCCCCCC[n+]3ccn(CCCCCCCC)c3)c2)c1.[Br-].[Br-].[Br-],,HA-MRSA ATCC 33591,,1 µM
Cc1c(CN(C)C(=O)/C=C/c2cnc3c(c2)CC(CN)C(=O)N3)oc2ccccc12 (centres unmarked),"microbial growth, broth dilution",ATCC29213,,0.03 µg/mL
CCCCCCCCCCCC[N+](C)(C)CCCCCCOc1cc(OCCCCCC[N+](C)(C)CCCCCCCCCCCC)cc(OCCCCCC[N+](C)(C)CCCCCCCCCCCC)c1.[Br-].[Br-].[Br-],,SH1000 MSSA,,2 µM
COc1nc(C(=O)O)ccc1NC(=O)c1ccc(NC(=O)c2ccc(NC(=O)[C@H](Cc3c[nH]nn3)NC(=O)c3ccc(NC(=O)/C(C)=C/c4ccc(O)cc4)cc3)cc2)c(OC)c1O,broth microdilution,ciprofloxacin-resistant,,16 µg/mL
COc1ccc(/N=N/C(=S)N2CCCCC2)cc1,"microbial growth, broth dilution",ATCCBAA44 MRSA,24 h,> 50 µM
CC1C=CC=CC(C)C2C=CC3CC(C)(O)C(Cl)C(C)C3C2C(=O)C(Cl)(Cl)C(=O)C(C)C(=O)O1 (centres unmarked),,MRSA clinical isolate,resistant OXA/GEN/TET,0.1 µg/mL
COc1cc(C(=O)O)ccc1NC(=O)c1ccc(NC(=O)c2ccc(NC(=O)[C@H](Cc3c[nH]nn3)NC(=O)c3ccc(NC(=O)/C(C)=C/c4ccc(O)cc4)cc3)cc2)cc1O,broth microdilution,ciprofloxacin-sensitive,,32 µg/mL
CCCCCCCCCC[N+](C)(C)CCCCOc1cc(OCCCC[N+](C)(C)CCCCCCCCCC)cc(OCCCC[N+](C)(C)CCCCCCCCCC)c1.[Br-].[Br-].[Br-],,HA-MRSA ATCC 33591,,1 µM
O=[N+]([O-])c1c(Br)c(Cl)c2cccnc2c1O,broth microdilution,ATCC 43300 MRSA,,8 µg/mL
